Values quoted from earlier work that unrelated publications cite.
Protocols differ between the studies behind these lines. ± gives the spread as reported.
Chain of UniProt P23975 (whole entry, looked up): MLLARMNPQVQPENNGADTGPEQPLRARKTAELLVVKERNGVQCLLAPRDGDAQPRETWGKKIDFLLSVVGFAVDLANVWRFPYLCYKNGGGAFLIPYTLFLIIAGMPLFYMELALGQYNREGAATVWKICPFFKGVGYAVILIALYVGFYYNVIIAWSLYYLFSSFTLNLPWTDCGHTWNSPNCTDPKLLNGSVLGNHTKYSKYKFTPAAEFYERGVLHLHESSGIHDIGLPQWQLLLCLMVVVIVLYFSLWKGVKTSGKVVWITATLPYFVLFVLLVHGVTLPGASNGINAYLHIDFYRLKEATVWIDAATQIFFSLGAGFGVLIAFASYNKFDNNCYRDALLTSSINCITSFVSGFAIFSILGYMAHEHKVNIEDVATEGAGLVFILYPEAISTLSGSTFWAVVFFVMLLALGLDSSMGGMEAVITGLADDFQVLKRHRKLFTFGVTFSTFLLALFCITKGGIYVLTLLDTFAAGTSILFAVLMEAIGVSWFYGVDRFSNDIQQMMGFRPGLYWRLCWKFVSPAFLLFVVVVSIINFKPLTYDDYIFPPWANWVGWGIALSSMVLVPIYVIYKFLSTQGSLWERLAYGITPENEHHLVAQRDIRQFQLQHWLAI

CC(C)NCCCn1c(Sc2cc(Cl)cc(Cl)c2)nc2c(N)ncnc21 — IC50 (Hsp90β; inhibitor): 41.8 µM
O=c1ccc(OCCCN2CCCCC2)nn1-c1ccc(Cl)c(Cl)c1 — inhibition (SLC6A2 (Homo sapiens, UniProt P23975); 1.0 µM): 31.9 ± 0.4%
CC(=O)Nc1ccc(NC(=O)c2ccc(C(C)=O)o2)cc1 — IC50 (urea transporter UT-A1; inhibitor): < 8 µM
COc1ccc(Nc2nc(Nc3ccc(OCC[18F])cc3)ncc2Br)cc1 — tumour to tissue ratio (S180 tumour-bearing mice; intravenous, 30 min; relative to: tumour over bone): 0.98
FC(F)(F)C(F)(F)c1nc(-c2cccnc2)n[nH]1 — IC50 (Plasmodium falciparum formate-nitrite transporter; L-lactate transport, inhibitor, radiolabelled uptake; yeast): 8.44 ± 1.85 µM
CCc1cccc(Sc2cc(C(=O)N3Cc4ccccc4C3)ccc2O)c1 — IC50 (Hsp90β; inhibitor): 22.3 µM
COc1ccc(C(=O)C=C(O)C(F)(F)C(F)(F)F)c(O)c1 — IC50 (Plasmodium falciparum formate-nitrite transporter; L-lactate transport, inhibitor, radiolabelled uptake; yeast): 0.17 ± 0.01 µM
c1ccc2c(c1)CCCNC2c1c[nH]c2ccccc12 (stereo not shown) — IC50 (COLO 320 ABCB1-resistant colon; cytotoxicity): 41.1 µM
CC(C)=CCC/C(C)=C/CCn1cc(CC(P(=O)(O)O)P(=O)(O)O)nn1 — IC50 (geranylgeranyl diphosphate synthase; enzyme activity, inhibitor): 0.173 µM
CCOC(=O)C(c1cc(Cl)c2cccnc2c1O)c1c[nH]c2ccccc12 (stereo not shown) — IC50 (COLO 320 ABCB1-overexpressing; cell viability): 4.81 µM
C[C@H](CN(C)Cc1ccccc1)NC(=O)c1ccc(-c2noc(C(F)(F)F)n2)cc1 — IC50 (class IIa HDAC; enzyme activity, inhibitor; HT-29): 0.046 ± 0.015 µM
COc1cccc(-c2cc(F)ccc2[C@H]2Cc3nc(N)nc(C)c3C(=O)N2)n1 — IC50 (Hsp90β): 0.0008 µM
Nc1ccc(C(=O)C=C(O)C(F)(F)C(F)(F)F)cn1 — IC50 (Plasmodium falciparum formate-nitrite transporter; L-lactate transport, inhibitor, radiolabelled uptake; yeast): 0.19 ± 0.02 µM
